Experimental data collected from several papers.
Each numbered part is a random draw from the data of one study; scales do not carry over between parts. Substitutions count along the parent as printed.

Block 1
Target: Fragile X messenger ribonucleoprotein 1, C-terminal low-complexity region (Fmr1, Mus musculus, UniProt P35922)
Method: RNA Bind-n-Seq
Form: RNA
Matrix: in vitro
Tested at: 200 nM
Notes: whole 134-nt RNA, ends assumed
Added: 150 mM LiCl
Baseline: input library
Direction: higher = stronger binding
Measurement: log2 enrichment
Library: 7-deaza-guanosine replaces G
Strand = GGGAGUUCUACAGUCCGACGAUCCUCAAGUCCUGUGCUACACAUCGUAUGUACCGAAUCGGUUGGGUUGGUUGGGGAAAGUAUUAUGUUACGCCGUUCGGAUCUGCACUUCCAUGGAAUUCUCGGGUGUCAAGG; value = -0.36
Strand = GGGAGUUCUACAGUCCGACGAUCAAGUCCUGUGCUACACAUCGUAUGUACCGAAUCGGUUUUUGGUUUUUGGUUUUUGGGAAAGUAUUAUGUUACGCCGUUCGGAUCUGCACUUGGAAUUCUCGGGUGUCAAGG; value = -1.67
Strand = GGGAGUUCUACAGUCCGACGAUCCCUCAAGUCCUGUGCUACACAUCGUAUGUACCGAAUCGGUGGGUGGGGUGGGGAAAGUAUUAUGUUACGCCGUUCGGAUCUGCACUUCCAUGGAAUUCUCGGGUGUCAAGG; value = -0.564
Strand = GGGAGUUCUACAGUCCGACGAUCCCUGUGCUACACAUCGUAUGUACCGAAUCGGGGAAAAAAAGGGGAAAAAAAGGGGAGGGGAAAGUAUUAUGUUACGCCGUUCGGAUCUGCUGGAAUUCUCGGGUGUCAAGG; value = 1.15
Strand = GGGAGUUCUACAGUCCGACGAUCUCCUGUGCUACACAUCGUAUGUACCGAAUCGGGAAAAAAAGGGUUUUUUUGGGUUUGGGAAAGUAUUAUGUUACGCCGUUCGGAUCUGCAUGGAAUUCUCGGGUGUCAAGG; value = -2.34
Strand = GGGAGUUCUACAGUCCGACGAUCUUUUCUGCAUGGACCGUGCCCUAGAAUUUGCCCCUGCCUGCCAUCGCUUCAAAAUCCUCAAGGCAGAAUGUUUAGCAAUGCUGGGUCGUUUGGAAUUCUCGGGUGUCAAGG; value = -0.171
Strand = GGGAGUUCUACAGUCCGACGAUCCAAGUCCUGUGCUACACAUCGUAUGUACCGAAUCGGUUUUUGGUUUUUUUGGAGGAAAGUAUUAUGUUACGCCGUUCGGAUCUGCACUUCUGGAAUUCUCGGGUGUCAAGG; value = -0.926
Strand = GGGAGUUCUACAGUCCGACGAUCUGAUGAUAGUAGCAGAGAAGAUGAACAUACACAUACUAACAGUGUCACGAACUCCAGUAGUAUUGUGGACCUGCCCGUUCACCAACUCUCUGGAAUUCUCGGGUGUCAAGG; value = -0.134

Block 2
Target: Sal-like protein 4, full length isoform A (SALL4, Homo sapiens, UniProt Q9UJQ4, residues 1-1053)
Chain of UniProt Q9UJQ4 (whole entry, looked up): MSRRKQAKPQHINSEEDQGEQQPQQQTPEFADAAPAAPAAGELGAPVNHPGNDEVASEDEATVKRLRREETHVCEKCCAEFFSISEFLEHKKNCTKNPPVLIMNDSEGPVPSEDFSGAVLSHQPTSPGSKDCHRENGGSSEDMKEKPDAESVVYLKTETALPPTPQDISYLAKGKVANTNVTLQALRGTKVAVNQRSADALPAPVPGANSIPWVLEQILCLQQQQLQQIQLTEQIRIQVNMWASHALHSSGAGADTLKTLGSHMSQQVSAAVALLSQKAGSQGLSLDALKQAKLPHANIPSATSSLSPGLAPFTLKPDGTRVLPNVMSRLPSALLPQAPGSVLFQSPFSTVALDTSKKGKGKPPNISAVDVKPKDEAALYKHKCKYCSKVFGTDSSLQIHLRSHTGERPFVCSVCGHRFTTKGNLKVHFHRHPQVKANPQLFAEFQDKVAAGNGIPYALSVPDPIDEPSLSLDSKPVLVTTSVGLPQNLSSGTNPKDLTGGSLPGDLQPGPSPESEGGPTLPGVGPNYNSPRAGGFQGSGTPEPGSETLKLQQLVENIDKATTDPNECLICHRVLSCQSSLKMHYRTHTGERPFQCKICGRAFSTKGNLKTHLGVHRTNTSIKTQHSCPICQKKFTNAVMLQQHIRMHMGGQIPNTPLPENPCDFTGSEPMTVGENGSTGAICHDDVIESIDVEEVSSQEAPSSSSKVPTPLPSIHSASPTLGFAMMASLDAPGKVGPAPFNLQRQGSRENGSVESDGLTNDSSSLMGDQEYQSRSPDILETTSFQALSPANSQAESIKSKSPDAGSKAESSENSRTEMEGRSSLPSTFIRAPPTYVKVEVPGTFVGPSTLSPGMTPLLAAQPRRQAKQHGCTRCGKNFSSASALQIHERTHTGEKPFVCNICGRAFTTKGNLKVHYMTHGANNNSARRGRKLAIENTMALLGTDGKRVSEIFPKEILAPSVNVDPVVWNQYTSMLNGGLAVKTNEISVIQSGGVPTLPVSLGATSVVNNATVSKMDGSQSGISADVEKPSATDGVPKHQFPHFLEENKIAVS
Method: universal PBM
Form: double-stranded DNA, one strand shown
Matrix: in vitro
Tested at: 600 nM
Notes: 8-mer, flanks averaged, mean of replicates
Direction: higher = stronger binding
Measurement: E-score
Strand = ATAGACGA; value = 0.147
Strand = TATGTTGA; value = 0.32
Strand = CACTGAAA; value = 0.0858
Strand = CCAAGACA; value = 0.00799
Strand = CGAATGAG; value = -0.0764
Strand = AGCCGACA; value = -0.229
Strand = AAGCCACC; value = -0.127
Strand = CTATATCC; value = 0.137
Strand = AAAATAGC; value = 0.0614
Strand = ATATGCAA; value = 0.235
Strand = GACGTCCA; value = -0.0518
Strand = CAAATGGA; value = 0.103
Strand = ATTCCGTG; value = 0.0304
Strand = TAGGAGCA; value = 0.0391
Strand = CAAGTAGG; value = -0.171
Strand = AACGGTCT; value = -0.107
Strand = CGCCGGCA; value = -0.246

Block 3
Target: Interferon regulatory factor 7, full length, phosphomimetic (IRF7, Homo sapiens, UniProt Q92985, residues 1-503, S101K/S471D/S472D/S475D/S476D/S477D/S483D/S484D/S487D)
Chain of UniProt Q92985 (whole entry, unmodified, looked up): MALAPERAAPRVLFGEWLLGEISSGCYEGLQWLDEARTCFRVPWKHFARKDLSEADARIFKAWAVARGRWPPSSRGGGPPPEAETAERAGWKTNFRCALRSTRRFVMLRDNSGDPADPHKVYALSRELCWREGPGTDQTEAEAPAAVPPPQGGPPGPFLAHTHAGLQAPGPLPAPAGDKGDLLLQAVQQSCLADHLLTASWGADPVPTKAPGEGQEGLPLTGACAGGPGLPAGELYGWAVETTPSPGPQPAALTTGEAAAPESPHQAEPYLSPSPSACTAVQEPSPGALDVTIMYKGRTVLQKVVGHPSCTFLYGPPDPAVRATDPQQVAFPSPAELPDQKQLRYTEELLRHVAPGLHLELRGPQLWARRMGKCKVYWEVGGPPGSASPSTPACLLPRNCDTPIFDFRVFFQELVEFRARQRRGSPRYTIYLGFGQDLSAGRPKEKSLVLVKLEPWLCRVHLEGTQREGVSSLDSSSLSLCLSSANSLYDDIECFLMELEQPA
Method: protein-binding microarray
Form: double-stranded DNA, one strand shown
Matrix: in vitro
Tested at: 250 nM
Notes: 60-bp whole probe
Added: salmon DNA 0.4 mg/ml
Baseline: random background probes
Direction: higher = stronger binding
Measurement: log fluorescence
Constant ends, left off below: GCCTAGCAC … GTCTTGATTCGCTTGACGCTGCTG
Strand = TTAGGTTTGCTTTCCCTTTAGTGCTAG; value = 2.15 z-score
Strand = GACAGTCTCCTTATCCTGACGTGCTAG; value = 0.398 z-score
Strand = GACGAACTGGGGAATCGAGACGTGCTA; value = 0.304 z-score
Strand = GTTAGTGGGATGGCTGTGGTGTGCTAG; value = -1.19 z-score
Strand = CCTCACATGACTGAATGGACGTGCTAG; value = -0.0817 z-score
Strand = GACCAACTGAGTTTCGAGACGTGCTAG; value = 3.64 z-score
Strand = GACGATTTCAGTTCCGAGGCGTGCTAG; value = 0.636 z-score
Strand = CTAGGACTGGACTTTCGGTTAGTGCTA; value = 0.46 z-score
Strand = CAGAAGTTCATGTTCAACCAGTGCTAG; value = -0.455 z-score
Strand = GACGGTTTTGGGACTGGGGACGTGCTA; value = 0.448 z-score
Strand = GGTCTTTTCGCTTTCTTTACGTGCTAG; value = 4.39 z-score
Strand = GACGGTTCCGACACTGGGGACGTGCTA; value = -0.123 z-score
Strand = ACCTGTTCCCTCATCAGGCTGTGCTAG; value = 1.25 z-score
Strand = TCAAAAATAGAAACTCGTACTGTGCTA; value = 0.865 z-score
Strand = TTAGGTATCCTACTGCTCTAGTGCTAG; value = -0.158 z-score
Strand = CTTTCTTTTATGCTCTTTCTGTGCTAG; value = 1.67 z-score
Strand = TCAGTTGTAGTTTTCATACTGTGCTAG; value = 0.491 z-score
Strand = TCATTTCTCTTTCACTGACTGTGCTAG; value = 2.87 z-score
Strand = CCTGTAATCCCAGCTACTCAGTGCTAG; value = 0.0928 z-score
Strand = TATTATTTGCCTTGCATTTTGTGCTAG; value = 0.46 z-score
Strand = CAGGTTTCTGATGGGCCTAGGTGCTAG; value = 3.09 z-score
Strand = TCAACATTGTGCAATCTTACTGTGCTA; value = -0.0242 z-score
Strand = TCATCTTTTTTGTTCCAACTGTGCTAG; value = 1.03 z-score
Strand = GACGATCTCAGTCTAGAGACGTGCTAG; value = -0.308 z-score
Strand = TCATGTTTCCATTTTCTACTGTGCTAG; value = 3.87 z-score

Block 4
Target: CCNB1, cyclin fold, Cln2 fusion (human)
Method: yeast growth competition, sequencing
Matrix: yeast
Notes: weak parent motif
Baseline: not given
Direction: higher = stronger binding
Measurement: normalised enrichment score
Starting sequence: SAMHD1 docking peptide (human); ASKSRVQLFKDDP
Variant = S4T; value = 0.503
Variant = L8H; value = -0.166
Variant = Q7I; value = -0.296
Variant = Q7F; value = 0.214
Variant = D11E; value = 0.366
Variant = F9H; value = 0.465
Variant = R5A; value = 0.371
Variant = K10Q; value = 0.0585
Variant = R5Y; value = 0.174
Variant = S4W; value = 0.74
Variant = Q7T; value = 0.239
Variant = S2E; value = 0.281
Variant = S2G; value = 0.17
Variant = D12R; value = -0.26
Variant = R5P; value = -0.57

Block 5
Target: ABI1, truncated, D143A, DHFR fusion (Arabidopsis thaliana)
Method: DHFR PCA, deep sequencing
Matrix: yeast
Notes: methotrexate growth selection, single substitutions
Added: (+)-ABA 0 µM
Baseline: wild-type fitted maximum
Direction: higher = stronger binding
Measurement: relative binding score
Starting sequence: PYL1, truncated, DHFR fusion (Arabidopsis thaliana); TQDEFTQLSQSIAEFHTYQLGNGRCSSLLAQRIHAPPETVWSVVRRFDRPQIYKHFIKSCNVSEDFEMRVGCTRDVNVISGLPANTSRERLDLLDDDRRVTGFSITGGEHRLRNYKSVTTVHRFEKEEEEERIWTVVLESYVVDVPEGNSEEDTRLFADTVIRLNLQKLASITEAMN; partner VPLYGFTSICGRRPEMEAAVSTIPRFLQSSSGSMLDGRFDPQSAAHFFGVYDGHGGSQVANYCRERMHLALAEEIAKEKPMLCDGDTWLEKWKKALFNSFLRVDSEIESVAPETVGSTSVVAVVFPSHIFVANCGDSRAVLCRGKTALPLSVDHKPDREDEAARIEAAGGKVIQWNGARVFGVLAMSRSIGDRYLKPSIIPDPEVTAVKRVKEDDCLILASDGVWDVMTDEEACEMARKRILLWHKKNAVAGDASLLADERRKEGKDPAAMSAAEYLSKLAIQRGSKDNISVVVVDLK
Variant = N165V; value = 6.03%
Variant = P37S; value = 2.51%
Variant = K116Y; value = -3.98%
Variant = D95E; value = -12.3%
Variant = K58I; value = -3.43%
Variant = A35M; value = 2.02%
Variant = D65H; value = 7.8%
Variant = L82K; value = 2.2%
Variant = L138I; value = -0.862%
Variant = T120W; value = -5.47%
Variant = A13Y; value = 6.44%
Variant = N77K; value = 49.6%
Variant = V62A; value = 2.73%
Variant = P50Q; value = -10.3%
Variant = F124I; value = 56.2%
Variant = D144V; value = 3.21%

Block 6
Target: Transcription factor SOX-2, HMG box (Sox2, Mus musculus, UniProt P48432, residues 41-119)
Chain of UniProt P48432 (41-119, looked up): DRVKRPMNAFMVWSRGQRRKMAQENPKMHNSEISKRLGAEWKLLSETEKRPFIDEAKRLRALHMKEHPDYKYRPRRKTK
Method: Spec-seq
Form: double-stranded DNA, one strand shown
Matrix: in vitro
Tested at: not given
Notes: whole probe, mean of replicates
Baseline: not given
Direction: lower = stronger binding
Measurement: relative binding energy
Constant ends, left off below: GAGTCGTCTCGTCAGCAC … CCGTAGAGCACTCAGGTC
Strand = CATAGTC; value = -0.904 ln ratio
Strand = CATGCGA; value = 0.515 ln ratio
Strand = CATTTCC; value = 0.589 ln ratio
Strand = CATCCTT; value = 0.696 ln ratio
Strand = CCCGGTT; value = 1.31 ln ratio
Strand = CATACCT; value = 0.354 ln ratio
Strand = CATAATC; value = -0.423 ln ratio
Strand = TATCGTT; value = -0.0417 ln ratio
Strand = TCGGGTT; value = 1.42 ln ratio
Strand = CCTGGTT; value = 0.96 ln ratio
Strand = CATCGCG; value = 0.599 ln ratio
Strand = GGATGTT; value = 0.958 ln ratio
Strand = TGTCGTT; value = 0.605 ln ratio
Strand = CATTCGG; value = 0.0176 ln ratio
Strand = CATTCTG; value = -0.553 ln ratio
Strand = GACTGTT; value = 0.0709 ln ratio
Strand = TGAAGTT; value = 0.578 ln ratio
Strand = TAAGGTT; value = 0.223 ln ratio
Strand = CATCACG; value = 0.685 ln ratio

For quick reference, copied from above (block 4):
Variant = R5P; value = -0.57
Variant = R5A; value = 0.371
Variant = D12R; value = -0.26
Variant = S2G; value = 0.17
Variant = Q7T; value = 0.239
Variant = F9H; value = 0.465
Variant = Q7F; value = 0.214
Variant = Q7I; value = -0.296
Variant = S4T; value = 0.503
Variant = D11E; value = 0.366
